Results from different studies.
A part holds a random share of what one study measured.

Series 1
Target: RING finger protein unkempt homolog, zinc fingers 1-6, GST-SBP tag (UNK, Homo sapiens, UniProt Q9C0B0, residues 30-357)
Method: RNA Bind-n-Seq
Molecule type: RNA
Matrix: in vitro
Concentration: not given
Notes: RNA with constant flanks, human and mouse sites, ends assumed
Relative to: input RNA pool
Reading: higher = stronger binding
Quantity: bound/input enrichment
Construct (chain): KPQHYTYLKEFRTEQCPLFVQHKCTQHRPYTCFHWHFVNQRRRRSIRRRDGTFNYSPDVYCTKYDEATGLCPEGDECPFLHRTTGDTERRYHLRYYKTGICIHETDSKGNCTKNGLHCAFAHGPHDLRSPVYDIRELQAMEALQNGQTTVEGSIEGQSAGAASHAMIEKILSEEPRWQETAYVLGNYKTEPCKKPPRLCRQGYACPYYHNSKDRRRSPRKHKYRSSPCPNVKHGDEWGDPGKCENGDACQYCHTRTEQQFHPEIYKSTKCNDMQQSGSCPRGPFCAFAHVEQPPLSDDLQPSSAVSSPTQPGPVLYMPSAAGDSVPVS
Sequence = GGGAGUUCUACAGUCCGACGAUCGAUCCUGAAUUUGCAGAAGAUCCAAGAAUGGUGAAUGUCGACCUCAUCACUCUUUCUUACACUUUUUUUGAAGCAAAGGAAGGGCACAAGUUGCCAGUUCCAGGCUAUAAUUGAAGCAGCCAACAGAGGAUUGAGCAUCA; value = 0.0884 ratio
Sequence = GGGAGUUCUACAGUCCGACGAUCGUCAGCCAAAGCUGGCCCCUGAACCACUGUGUGCCCAUUUCCUAGGGAAGGGGAAGGAGAAUAAACAGAAUAUUUAUUACAAAUGUUAGAAUAUAUUUCUUAUACUAGGAAUCUCAUUUGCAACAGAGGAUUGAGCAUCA; value = 0.862 ratio
Sequence = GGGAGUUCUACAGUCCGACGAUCAGAAAAUAAAUGAUUUUUAAGUUAUGUCUAUUAAUUUGACUCUAGAUAUAUAUAUUUACUUCCUUAAUAAUGCAAGAAGUCUUUGUGGGAAACAGAGAAGCAAACAAUUGCAUUUUGUGUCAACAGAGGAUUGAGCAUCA; value = 3.2 ratio
Sequence = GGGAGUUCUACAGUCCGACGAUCAGUUACCGGCUACCCAAGGACUUUGUAGACCUCUCUACUGGGGAGGACGCUCACAAGCUAAUAGACUUCCUUAAGCUGAAGAGAAAUCAGCAGGAGGACGACUGAUGAGCGUACUGGAACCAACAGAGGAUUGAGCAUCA; value = 0.101 ratio
Sequence = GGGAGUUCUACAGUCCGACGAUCUUUCUUUCUUUUUUUUUUUUUUUUGAGAAGUCACCUGUUUUCCUUUUACAGGUGACUGAUUAUAGUAUUGGCUUUCAAGAUGUUCCUCAGGCUGGGCGUGGGGGCUCACGCCUUUAAUGCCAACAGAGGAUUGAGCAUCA; value = 8.23 ratio
Sequence = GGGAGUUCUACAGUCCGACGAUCCUUUCUGGAUUAGACUCAGUAGCUUCUUUCAGUUGAAAAUGAGGAGUGGCUUCAUCCCAUUUAUCUUUUCUUUUUUUUUUUUUUAAGAUUUAUUUAUUAUAUGUAAGUGUAGCUGUCUUCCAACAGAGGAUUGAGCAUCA; value = 18 ratio
Sequence = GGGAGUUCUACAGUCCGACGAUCAUCUGAAUAAGUUAAAGACAAUUGAUGUUAUAGUCCGUAGCAUGCAGGAUGCUGAGCUGUUGGUCAAAGGUUAUGAGAUCAAGCUGAGUCAAGAGGAAGCAGUGCCAGCAGACCUCUCAGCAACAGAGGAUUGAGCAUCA; value = 0.66 ratio
Sequence = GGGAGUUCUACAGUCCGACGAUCCGCGUUUUGUGUAGAGAAUAAGGAACGUGGAUCUUUUUAUUUUGCAAUCCUGGGCCAGCUAGAAGCCAGGAGCUGAUUGACCUUUUAACUUUUUUCAGUGGCCACAUUUUGGUUAUCGAUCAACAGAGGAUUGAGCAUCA; value = 0.97 ratio
Sequence = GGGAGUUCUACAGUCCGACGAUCCCUGACAGUAUGCUGGCGCACAUGUUCAAGGACAAAGGUGUCUGGGGAAAUAAGCAAGAUCAUAGAGGAGCAUUCUUAAUUGACCGAAGUCCUGAGUACUUUGAACCUAUUUUGAACUACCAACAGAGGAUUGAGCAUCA; value = 0.267 ratio
Sequence = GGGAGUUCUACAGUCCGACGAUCAAGCUUCUUUGAGACUCAGUCAAGGUCAUCAUUUUGACACGCUUGGUCUCCAUUUUGACAUCCACGCAUAAAGAAGUGUGGUCCCCACCAAACAGGACCAAAGUUCCUGAAUGUAUGGGACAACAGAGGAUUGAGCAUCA; value = 0.109 ratio
Sequence = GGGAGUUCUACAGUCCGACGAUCAGUUUUAAGCAGACAUGGAUGAAUAAUAUGAUGAAGACUUCUGAAGCCAAAAUUAAACAUUUUGAUGGUGAAGAUUACACAUGCAUAACAUUCCAACCAGAUCUGUCCAAAUUUAAGAUGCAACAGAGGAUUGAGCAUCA; value = 0.155 ratio

Series 2
Target: Sal-like protein 4, full length isoform A (SALL4, Homo sapiens, UniProt Q9UJQ4, residues 1-1053)
Chain of UniProt Q9UJQ4 (whole entry, looked up): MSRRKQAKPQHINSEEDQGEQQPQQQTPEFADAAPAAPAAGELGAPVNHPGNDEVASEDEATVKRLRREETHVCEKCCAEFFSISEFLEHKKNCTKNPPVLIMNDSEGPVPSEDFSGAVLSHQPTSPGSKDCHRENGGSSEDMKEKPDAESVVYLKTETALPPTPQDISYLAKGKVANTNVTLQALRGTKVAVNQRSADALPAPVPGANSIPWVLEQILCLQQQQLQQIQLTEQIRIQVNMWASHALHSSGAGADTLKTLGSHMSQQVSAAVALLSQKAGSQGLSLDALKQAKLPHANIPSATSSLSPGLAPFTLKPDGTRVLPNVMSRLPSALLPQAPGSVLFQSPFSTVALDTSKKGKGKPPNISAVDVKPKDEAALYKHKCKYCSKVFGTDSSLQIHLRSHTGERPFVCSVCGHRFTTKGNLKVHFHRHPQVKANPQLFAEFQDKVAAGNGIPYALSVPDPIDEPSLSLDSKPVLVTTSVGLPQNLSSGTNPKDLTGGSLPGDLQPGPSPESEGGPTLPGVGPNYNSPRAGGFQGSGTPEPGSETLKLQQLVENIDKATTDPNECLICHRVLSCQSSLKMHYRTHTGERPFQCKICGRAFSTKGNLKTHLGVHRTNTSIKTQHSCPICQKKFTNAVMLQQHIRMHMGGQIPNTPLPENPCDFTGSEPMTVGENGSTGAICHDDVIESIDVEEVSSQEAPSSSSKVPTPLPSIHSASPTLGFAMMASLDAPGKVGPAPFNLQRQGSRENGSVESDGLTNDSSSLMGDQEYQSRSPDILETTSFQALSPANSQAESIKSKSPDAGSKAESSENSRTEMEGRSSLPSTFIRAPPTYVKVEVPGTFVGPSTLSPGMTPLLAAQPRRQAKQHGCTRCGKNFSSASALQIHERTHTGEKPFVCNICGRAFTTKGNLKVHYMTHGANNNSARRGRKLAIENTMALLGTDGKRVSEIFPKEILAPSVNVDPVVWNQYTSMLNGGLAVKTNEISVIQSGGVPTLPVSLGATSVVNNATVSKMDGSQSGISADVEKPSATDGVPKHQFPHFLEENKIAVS
Method: universal PBM
Molecule type: double-stranded DNA, one strand shown
Matrix: in vitro
Concentration: 600 nM
Notes: 8-mer, flanks averaged, mean of replicates
Reading: higher = stronger binding
Quantity: E-score
Sequence = AAGGTTCA; value = -0.0137
Sequence = AAGGTGGT; value = 0.0426
Sequence = GACCCCAC; value = -0.248
Sequence = CAAGGGGA; value = -0.128
Sequence = GCACACTA; value = -0.0733
Sequence = ACCGTCGT; value = -0.149
Sequence = AAGGAAAG; value = 0.0124
Sequence = CGGTTCTC; value = -0.154
Sequence = ACGGAAGC; value = -0.171
Sequence = AGCCTCAC; value = -0.176
Sequence = AGACGGTA; value = 0.0192
Sequence = AACAGTGT; value = 0.141
Sequence = AGAGCAGG; value = 0.00216
Sequence = AACCGCTT; value = -0.0917
Sequence = CTGCGAAG; value = -0.213
Sequence = AGCGGATA; value = -0.155
Sequence = AGGGGCAG; value = -0.235
Sequence = GGGGGGGA; value = -0.391
Sequence = AGCCATGA; value = -0.0141
Sequence = CAGGGTCC; value = -0.319
Sequence = GATCCATA; value = 0.244
Sequence = AACCCTTG; value = -0.184
Sequence = GGAAGGAC; value = -0.111
Sequence = AAAGATTT; value = 0.196
Sequence = ACCCGCTG; value = -0.253

Series 3
Target: Histone acetyltransferase KAT6A, winged helix 1, GST fusion (KAT6A, Homo sapiens, UniProt Q92794, residues 1-85)
Method: protein binding microarray
Molecule type: double-stranded DNA, one strand shown
Matrix: in vitro
Concentration: not given
Notes: 8-mer, flanks averaged, mean of 2 arrays, mostly near background
Relative to: not given
Reading: higher = stronger binding
Quantity: E-score
Residues (chain): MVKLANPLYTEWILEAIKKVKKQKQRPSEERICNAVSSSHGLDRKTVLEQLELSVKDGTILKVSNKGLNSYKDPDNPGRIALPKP
Sequence = ACGCCTGC; value = -0.102
Sequence = ACCCAAAG; value = -0.184
Sequence = GATCTCAA; value = 0.0491
Sequence = CCTCTCTA; value = -0.126
Sequence = AAGTAATC; value = -0.137
Sequence = CCTCAGCA; value = -0.016
Sequence = GAAGCTCC; value = 0.0962
Sequence = CCCGACGC; value = 0.459
Sequence = CGATAGTC; value = 0.021
Sequence = ACAAAACA; value = -0.238
Sequence = CGTAGGGA; value = 0.123
Sequence = AGCTCCAC; value = -0.166
Sequence = AGCCCGTG; value = 0.219
Sequence = GCGAATAC; value = 0.135
Sequence = CGGTCTTA; value = 0.141
Sequence = CAATACCC; value = 0.0321
Sequence = AACGATGT; value = -0.131
Sequence = TAACATTA; value = -0.0698
Sequence = AGCCCTGC; value = -0.141
Sequence = AGGGCTCC; value = -0.0595
Sequence = GAAGCGGC; value = 0.374
Sequence = GGCCCGCA; value = 0.218
Sequence = ATCTAGTC; value = -0.309

Series 4
Target: Protein max, full length (MAX, Homo sapiens, UniProt P61244-2, residues 1-151)
Method: protein-binding microarray
Molecule type: double-stranded DNA, one strand shown
Matrix: in vitro
Concentration: not given
Notes: k-mer, scored over probes, only values ≥0.25
Reading: higher = stronger binding
Quantity: E-score
Sequence = AGCGTGAT; value = 0.428
Sequence = CCACCTGG; value = 0.403
Sequence = CCATGAGA; value = 0.311
Sequence = CATGTGAA; value = 0.44
Sequence = AACGTGAT; value = 0.431
Sequence = AACCTCAT; value = 0.291
Sequence = CATGAGTA; value = 0.267
Sequence = GTGACTCA; value = 0.322
Sequence = ACGTGGTG; value = 0.42
Sequence = AACACGCC; value = 0.347
Sequence = ACGGGGTG; value = 0.282
Sequence = GCGTGTAA; value = 0.371
Sequence = CCGGCACG; value = 0.35
Sequence = CACGTGGC; value = 0.497
Sequence = AGGCACGC; value = 0.395
Sequence = CACGCGAG; value = 0.393
Sequence = AAACGTGT; value = 0.388
Sequence = ATGTGGTG; value = 0.316

Series 5
Target: Interferon regulatory factor 5, full length, phosphomimetic (IRF5, Homo sapiens, UniProt Q13568-2, residues 1-514, K96S/S451D/S453D/S456D/S462D)
Method: protein-binding microarray
Molecule type: double-stranded DNA, one strand shown
Matrix: in vitro
Concentration: 250 nM
Notes: 60-bp whole probe
Together with: salmon DNA 0.4 mg/ml
Relative to: random background probes
Reading: higher = stronger binding
Quantity: log fluorescence
Shared flanks, not repeated: GCCTAGCAC … GTCTTGATTCGCTTGACGCTGCTG
Sequence = CAAAACATCATTGTCATATAGTGCTAG; value = 0.883 z-score
Sequence = TACGAACTGGGGACTGGAGACGTGCTA; value = -0.247 z-score
Sequence = TTACGTATCCTACTGCTTTAGTGCTAG; value = 0.682 z-score
Sequence = GACGGTCTCGGTCTCGCGACGTGCTAG; value = 0.097 z-score
Sequence = GACGGACTGCGGTTTCGGGACGTGCTA; value = 1.7 z-score
Sequence = TTAGGTCTCGGTCTCGCTTAGTGCTAG; value = 0.386 z-score
Sequence = GTAGGTCTCGGTATCGGTTAGTGCTAG; value = 5.01 z-score
Sequence = GGCTTTGACTCTTTCTGTCAGTGCTAG; value = 1.6 z-score
Sequence = GAACATTTCCTTTACATTCCGTGCTAG; value = 0.952 z-score
Sequence = TTAGATCTCAGTTTCAATTAGTGCTAG; value = 2.82 z-score
Sequence = TTTTCACTTTCTTTAACTCAGTGCTAG; value = 5.95 z-score
Sequence = GACGATTTCGGGTTGCGAGACGTGCTA; value = 3.5 z-score
Sequence = ATTGGTCTTCACTTGGCAAAGTGCTAG; value = 0.176 z-score
Sequence = GACGGTATCGGGACTGGGCACGTGCTA; value = 1.26 z-score
Sequence = GACGGTATCCTAATGCTGACGTGCTAG; value = -0.252 z-score
Sequence = CTCGTTTACATTTTCCAAATGTGCTAG; value = 0.671 z-score
Sequence = GAGGGTATCGGTATCGGGACGTGCTAG; value = 5.13 z-score
Sequence = GACGATCTCAGGATCGAGACGTGCTAG; value = -0.37 z-score
Sequence = TTAGGTTTCCTGCTCCTTTAGTGCTAG; value = 0.252 z-score
Sequence = TTCGGTTTCGGTTCCGGTTAGTGCTAG; value = 11.1 z-score
Sequence = GTCGGACTGCTACTGCTGACGTGCTAG; value = -0.501 z-score
Sequence = TTAGATTTCGGGACTGGTTTAGTGCTA; value = 2.64 z-score
Sequence = TTAGGTCTCAGTCTCGATTAGTGCTAG; value = 0.577 z-score
Sequence = GACCGTTCCCTTTTCCTGACGTGCTAG; value = 0.233 z-score
Sequence = GACCAACTGGGGACTGGAGACGTGCTA; value = -0.717 z-score

Excerpt of the above (series 5):
Sequence = TTAGGTTTCCTGCTCCTTTAGTGCTAG; value = 0.252 z-score
Sequence = TTCGGTTTCGGTTCCGGTTAGTGCTAG; value = 11.1 z-score
Sequence = GTCGGACTGCTACTGCTGACGTGCTAG; value = -0.501 z-score
Sequence = TTAGATTTCGGGACTGGTTTAGTGCTA; value = 2.64 z-score
Sequence = TTAGGTCTCAGTCTCGATTAGTGCTAG; value = 0.577 z-score
Sequence = GACCGTTCCCTTTTCCTGACGTGCTAG; value = 0.233 z-score
